Measured values collected from several papers.
Parts stem from different laboratories: compare values within a part only. Several values in a cell are separate wells, animals, samples, runs or records. Changes are numbered by the printed parent chain.

Series 1 — method: DHFR PCA, deep sequencing; sample: yeast; with: (+)-ABA 0 µM; baseline: wild-type fitted maximum; direction: higher = stronger binding
Target: ABI1, truncated, D143A, DHFR fusion (Arabidopsis thaliana)
Notes: methotrexate growth selection, single substitutions
Parent: PYL1, truncated, DHFR fusion (Arabidopsis thaliana); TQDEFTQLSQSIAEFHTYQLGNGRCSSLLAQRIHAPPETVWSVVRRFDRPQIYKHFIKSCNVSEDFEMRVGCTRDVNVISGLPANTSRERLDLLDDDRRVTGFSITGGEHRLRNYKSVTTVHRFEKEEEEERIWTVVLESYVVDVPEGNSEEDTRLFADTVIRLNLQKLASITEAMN
| Change | relative binding score |
| --- | --- |
| H34N | 45.9% |
| S63V | 6.73% |
| H34K | 32.7% |
| S63C | 19.6% |
| R49K | 47.5% |
| H16F | -5.72% |
| Q19P | 45.7% |
| G71T | -2.74% |

Series 2 — effect on: peptide-MHC binding; form: peptide; concentration: concentration not given
Target: HLA class I histocompatibility antigen, A alpha chain, allele A*26:03 (Homo sapiens, UniProt P04439)
| Sequence | binding |
| --- | --- |
| AKYEICLEK | inactive |
| REMGIVDLL | inactive |
| AVYLLDGLR | inactive |
| SEFWLNYTA | inactive |
| LYNTVATLY | inactive |
| HVFVCGNNM | inactive |
| FYLFTFTIY | inactive |
| SLYKYLLLR | inactive |
| FLMRNAIQY | inactive |
| SEINNLNLT | inactive |
| LYNTIAVLY | inactive |
| GEIFGLLGP | inactive |
| RSLFNTVATLY | inactive |
| AVFLSYIGY | inactive |
| QVFKGVVIR | inactive |
| RYPGVMYAF | inactive |
| ATNDGLIKK | inactive |
| EYKKFIATF | inactive |

Series 3 — method: aptamer microarray, sandwich; form: DNA with 2'F-ANA; sample: in vitro; concentration: 200 nM; with: Cy3 exosite-II aptamer, 400 nM; direction: higher = stronger binding; sequence: GGTTGGTGTGGTTGG
Target: Prothrombin, mature alpha-thrombin (F2, Homo sapiens, UniProt P00734)
Notes: whole 15-mer aptamer, many near background
| Modification | mean fluorescence intensity |
| --- | --- |
| 2'F-ANA at 1 2 3 5 10 11 15 | 80.9 a.u. |
| 2'F-ANA at 1 2 4 9 10 12 15 | 60.4 a.u. |
| 2'F-ANA at 2 6 7 12 13 | 544 a.u. |
| 2'F-ANA at 2 3 6 10 12 14 15 | 259 a.u. |
| 2'F-ANA at 1 5 6 9 12 15 | 108 a.u. |
| 2'F-ANA at 1 6 7 10 13 14 | 50.4 a.u. |
| 2'F-ANA at 1 2 3 4 7 8 9 10 12 14 15 | 56.7 a.u. |
| 2'F-ANA at 1 4 6 7 9 10 15 | 81.9 a.u. |

Series 4 — method: RNA Bind-n-Seq; form: RNA; sample: in vitro; concentration: 365 nM; baseline: no-protein control; direction: higher = stronger binding
Target: RNA binding protein fox-1 homolog 2, RRM domain, GST-SBP tag (RBFOX2, Homo sapiens, UniProt O43251-10, residues 100-194)
Notes: natural RNA segment, single round, ends assumed
Constant ends, left off below: GGGAGUUCUACAGUCCGACGAUC … UGGAAUUCUCGGGUGCCAA
Residues (chain): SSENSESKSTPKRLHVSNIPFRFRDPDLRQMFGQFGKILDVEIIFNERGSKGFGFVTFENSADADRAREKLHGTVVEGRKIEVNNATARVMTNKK
| Sequence | RBNS enrichment (R) |
| --- | --- |
| CAACACGAGAGUGGUACUGGUUUCAUGUGCGAGGACUUCCAUGGACUGAACAUGGAUGCCGGAGCAGAGCAUCAAUUCCUUCAUAGAUUCCAAGUCACUCCUCGAUGAAG | 0.663 |
| UGCCAUUGCAUCAAACUCUAUGGCGUGGCCUUAUCGAUUGCAGUGGGAAGUUGUUGAAGACUUGAAGACGUGAUUCCUGCUCCAAUCAUCCCUUCUUGCUCCUCUUUGUG | 1.11 |
| UAGAUUAGCCAUCUUUCAAAUUCACUUUUAUUUCAGUCCUUAUAUUUCAUAUACUUCCGUCUCGAUGCUGUUAACAACUUCUGAUAACAUGGAAAAUUCAAGGAUUGUUU | 0.479 |
| UGGAGGCAGGGGCUGCUGCCUUGUUUCACCUUCCAUGUCAGGCCAGCCUGUCCCUGAAAGAGAAGAUGGCCAUGCCCUCCAUGUGUAAGAACAAUGCCAGGGCCCAGGAG | 0.814 |
| AGGGCUUCACUCCCAGAGCACCCCCUUAAUCCCCACUUUUCAGGCCGUCUCAGUAUUGCCUAUGGGGGGUCACCCUCCUUCCCCUACCCCAAGUGCCUUUGCUAUGUUUU | 1.47 |
| UAGCUCUUACCUACUCCGCCACCAGCGUACCCACUCUGGCCAGAAGCCCUACAAAUGUCCACACUGUGGGAAGGCCUUUGGCGACAGCUCCUACCUCCUGCGACACCAGC | 0.321 |
| AUCCCUUCCAGGCACAGCGAGUUGGUUCUGCUUUUUGCCUGUAAGCCAAAGAAAAGCCACAUCUAAAAAGCUACUACUAAAAGCCAGAAAGAAAAGUGGAUUUGAACUCA | 0.395 |
| AACCAUUCAGGGUGAUUUUUCUUGUCAGUGGACAGUGACGAACAGAGAUUUGAAAUCCCUUACCUCCAAUAAUAAGCCAUUCAGCCUAAAUUCAUUUUUAUGAAUAAAUC | 0.382 |

Other studies, line by line
| SMILES | cell line | method | concentration | baseline | measurement | value |
| --- | --- | --- | --- | --- | --- | --- |
| CNC(=N)NCCC[C@H](NC(=O)[C@H](CC(C)C)NC(=O)NNC(=O)[C@H](Cc1ccccc1)NC(=O)[C@H](CO)NC(=O)[C@H](CC(N)=O)NC(=O)[C@@H](Cc1cccnc1)NC(=O)[C@H](N)Cc1ccc(O)cc1)C(=O)NCC(N)=O | normal-adjacent epithelium patient-derived organoids sample F | CellTiter-Glo | 0.1 µM | DMSO | viability | 99.6% and 113% |

Excerpt of the above (series 1):
| Change | relative binding score |
| --- | --- |
| H34K | 32.7% |
| H16F | -5.72% |
| H34N | 45.9% |
| S63C | 19.6% |
